# Assay results collected from several papers.
# Protocols differ between the studies behind these lines. Values joined by “and” are separate records of one study, mostly repeats; a detail may differ. ± gives the spread as reported.
SMILES,tested on,assay,test system,setting,scale,endpoint,result
N#[11C]c1ccc(-c2csc(NN=C3CCCC3)n2)cc1,,,"C57BL/6 mouse, male","intravenous, 3 MBq, 5 min",,uptake in adrenal gland,21.6 ± 1.96 %ID/g
CC(C)[C@H](NC(=O)[C@@H](NC(=O)[C@H](CCCNC(=N)N)NC(=O)[C@H](CCCNC(=N)N)NC(=O)[C@H](CCCNC(=N)N)NC(=O)[C@H](CCC(N)=O)NC(=O)[C@H](CCCNC(=N)N)NC(=O)[C@H](CCCNC(=N)N)NC(=O)[C@H](CCCCN)NC(=O)[C@H](CCCCN)NC(=O)[C@H](CCCNC(=N)N)NC(=O)CN)[C@@H](C)O)C(=O)N[C@H](C(=O)N[C@@H](CO)C(=O)N1CCC[C@H]1C(=O)O)[C@@H](C)O,,,"ICR mice, male, heart","intranasal, 5 mg/kg daily, 4 weeks",,organ weight,0.232 ± 0.037 g
Cc1ccc(OCCN(C)C)cc1C(=O)N[C@H](C)c1cc(-c2cccnc2N2CCCC2)nc2ccccc12,Vero E6,,,125 µM,,viability,-0.457% and 0.228%
CC(C)C[C@H](NC(=O)[C@H](Cc1ccc(O)cc1)NC(=O)[C@H](Cc1c[nH]cn1)NC(=O)[C@H](CC(=O)O)NC(=O)[C@H](CC(C)C)NC(=O)[C@H](C)NC(=O)[C@H](CC(C)C)NC(=O)CNC(=O)CNC(=O)[C@@H](NC(=O)[C@@H](NC(=O)[C@H](CCCCN)NC(=O)CNC(=O)[C@@H](NC(=O)[C@H](CCCCN)NC(=O)[C@H](CCCCN)NC(=O)[C@H](C)NC(=O)[C@H](CCCCN)NC(=O)[C@H](CCCNC(=N)N)NC(=O)[C@H](Cc1ccccc1)NC(=O)[C@@H](NC(=O)[C@H](CO)NC(=O)[C@H](CCCCN)NC(=O)[C@H](Cc1c[nH]c2ccccc12)NC(=O)CN)C(C)C)C(C)C)[C@@H](C)O)C(C)C)C(N)=O,,,"zebrafish embryos 28 hpf, E3 medium",1 h,,acute toxic concentration,5 µM
CCN(CC)CCOc1ccc(-c2nnn(Cc3ccc(OC)cc3)c2N)cc1,,,mouse plasma,120 min,,remaining compound,102%
O=C1NC2(CC2)COc2ncc(F)cc2[C@H]2COCCN2c2ccn3ncc1c3n2,,,"Sprague-Dawley rat, male, liver","oral, 10 mg/kg/day, 4 weeks, end of treatment",,organ-to-brain weight ratio,759 ± 150%
CCN(CCCCOc1ccc(CCC(=O)N2CCC(Cc3ccccc3)CC2)cc1OC)Cc1ccccc1,,,"Sprague-Dawley rats, both sexes, faeces","oral gavage, 25 mg/kg, 6 to 12 h",,excreted amount,13300 ± 2690 ng
CC[C@H](C)[C@H](NC(=O)[C@H](CCCCN)NC(=O)CNC(=O)[C@H](CC(C)C)NC(=O)[C@H](Cc1ccccc1)NC(=O)[C@H](CCCCN)NC(=O)[C@H](CO)NC(=O)[C@H](Cc1ccccc1)NC(=O)[C@H](Cc1c[nH]c2ccccc12)NC(=O)[C@H](CCC(N)=O)NC(=O)[C@@H](NC(=O)[C@H](Cc1ccccc1)NC(=O)CCCCCNC(=O)CN1CCN(CC(=O)O)CCN(CC(=O)O)CCN(CC(=O)O)CC1)C(C)C)C(=O)N[C@@H](CCC(=O)O)C(=O)N1CCC[C@H]1C(=O)N[C@@H](CC(=O)O)C(=O)N[C@H](C(=O)N[C@@H](CO)C(=O)N[C@@H](CCC(N)=O)C(=O)N[C@H](C(=O)N[C@@H](CCC(N)=O)C(=O)N[C@@H](CC(=O)O)C(=O)N1CCC[C@H]1C(=O)N[C@@H](CC(N)=O)C(=O)N[C@@H](CC(=O)O)C(=O)N[C@@H](CCC(N)=O)C(=O)N[C@@H](Cc1ccc(O)cc1)C(=O)N[C@@H](CCC(=O)O)C(=O)N1CCC[C@H]1C(=O)N[C@@H](Cc1ccccc1)C(=O)O)C(C)C)C(C)C [copper-64 labelled],,dynamic PET,"mouse, CT26 tumour, checkpoint inhibitor-treated, tumour","intravenous, 100 µCi/mouse, 1620 s",,SUVmean,4.57 SUV
Cc1ccc(N2CCN(C)C3(CC3)C2)cc1C(=O)N[C@H](C)c1cc(-c2cnn(C)c2)nc2ccccc12,Vero E6,,,125 µM,,viability,11.5% and 14% and 10.2%
C[C@H](NCc1ccc(-c2ccc(C(F)(F)F)cc2)cc1)C(N)=O,,general toxicity,Sprague-Dawley rat,"oral, multiple doses",,NOAEL,> 200 mg/kg
CSCC[C@H](N)C(=O)N[C@@H](C)C(=O)N[C@@H](CCCNC(=N)N)C(=O)N[C@@H](CCCNC(=N)N)C(=O)N[C@@H](CC(=O)O)C(=O)N[C@@H](CCCCN)C(=O)N[C@H](C(=O)N[C@@H](CC(=O)O)C(=O)N[C@@H](Cc1ccccc1)C(=O)N[C@@H](C)C(=O)N[C@@H](CCCNC(=N)N)C(=O)N[C@@H](CCCNC(=N)N)C(=O)N[C@@H](CCCNC(=N)N)C(=O)N[C@@H](CCCNC(=N)N)C(=O)NCCCCCC(=O)NCCCCC(NC(=O)CCCCCNC(=O)[C@H](CCCNC(=N)N)NC(=O)[C@H](CCCNC(=N)N)NC(=O)[C@H](CCCNC(=N)N)NC(=O)[C@H](CCCNC(=N)N)NC(=O)[C@H](C)NC(=O)[C@H](Cc1ccccc1)NC(=O)[C@H](CC(=O)O)NC(=O)[C@@H](NC(=O)[C@H](CCCCN)NC(=O)[C@H](CC(=O)O)NC(=O)[C@H](CCCNC(=N)N)NC(=O)[C@H](CCCNC(=N)N)NC(=O)[C@H](C)NC(=O)[C@@H](N)CCSC)[C@@H](C)O)C(=O)NCCCCC(NC(=O)C(CCCCNC(=O)CCCCCNC(=O)[C@H](CCCNC(=N)N)NC(=O)[C@H](CCCNC(=N)N)NC(=O)[C@H](CCCNC(=N)N)NC(=O)[C@H](CCCNC(=N)N)NC(=O)[C@H](C)NC(=O)[C@H](Cc1ccccc1)NC(=O)[C@H](CC(=O)O)NC(=O)[C@@H](NC(=O)[C@H](CCCCN)NC(=O)[C@H](CC(=O)O)NC(=O)[C@H](CCCNC(=N)N)NC(=O)[C@H](CCCNC(=N)N)NC(=O)[C@H](C)NC(=O)[C@@H](N)CCSC)[C@@H](C)O)NC(=O)CCCCCNC(=O)[C@H](CCCNC(=N)N)NC(=O)[C@H](CCCNC(=N)N)NC(=O)[C@H](CCCNC(=N)N)NC(=O)[C@H](CCCNC(=N)N)NC(=O)[C@H](C)NC(=O)[C@H](Cc1ccccc1)NC(=O)[C@H](CC(=O)O)NC(=O)[C@@H](NC(=O)[C@H](CCCCN)NC(=O)[C@H](CC(=O)O)NC(=O)[C@H](CCCNC(=N)N)NC(=O)[C@H](CCCNC(=N)N)NC(=O)[C@H](C)NC(=O)[C@@H](N)CCSC)[C@@H](C)O)C(N)=O)[C@@H](C)O (stereo partly shown),,,"mouse C57BL/6 female, small intestine","6 h, radioiodinated peptide",baseline: total radioactivity,tissue distribution,9.9% and 8.33% and 15.9%
CC(C)=CCC/C(C)=C/CCn1cc(CC(C)(P(=O)(O)O)P(=O)(O)O)nn1,,PAMPA,phosphate buffer,"5 µg/mL, 5 h, room temperature",,Papp,0.208 ± 0.013 ×10⁻⁶ cm/s
CCCC[C@H]1C(=O)N(C)[C@@H](CCCC)C(=O)N[C@@H](CCCNC(=O)CN2CCN(CC(=O)O)CCN(CC(=O)O)CCN(CC(=O)O)CC2)C(=O)N[C@H](C(=O)NCC(N)=O)CSCC(=O)N[C@@H](Cc2ccc(O)cc2)C(=O)N(C)[C@@H](C)C(=O)N[C@@H](CC(N)=O)C(=O)N2CCC[C@H]2C(=O)N[C@@H](Cc2c[nH]cn2)C(=O)N[C@@H](CC(C)C)C(=O)N(C)CC(=O)N[C@@H](Cc2c[nH]c3ccccc23)C(=O)N[C@@H](CO)C(=O)N[C@@H](Cc2c[nH]c3ccccc23)C(=O)N1C [gallium-68 labelled],,,"NOD/SCID mice, CHO-hPD-L1 xenograft, tumour over muscle","iv, dose not given, 10 min",baseline: tumour over muscle,tissue-to-tissue ratio,3.47 ± 1.02

# Repeated from above:
SMILES,tested on,assay,test system,setting,scale,endpoint,result
O=C1NC2(CC2)COc2ncc(F)cc2[C@H]2COCCN2c2ccn3ncc1c3n2,,,"Sprague-Dawley rat, male, liver","oral, 10 mg/kg/day, 4 weeks, end of treatment",,organ-to-brain weight ratio,759 ± 150%
CC[C@H](C)[C@H](NC(=O)[C@H](CCCCN)NC(=O)CNC(=O)[C@H](CC(C)C)NC(=O)[C@H](Cc1ccccc1)NC(=O)[C@H](CCCCN)NC(=O)[C@H](CO)NC(=O)[C@H](Cc1ccccc1)NC(=O)[C@H](Cc1c[nH]c2ccccc12)NC(=O)[C@H](CCC(N)=O)NC(=O)[C@@H](NC(=O)[C@H](Cc1ccccc1)NC(=O)CCCCCNC(=O)CN1CCN(CC(=O)O)CCN(CC(=O)O)CCN(CC(=O)O)CC1)C(C)C)C(=O)N[C@@H](CCC(=O)O)C(=O)N1CCC[C@H]1C(=O)N[C@@H](CC(=O)O)C(=O)N[C@H](C(=O)N[C@@H](CO)C(=O)N[C@@H](CCC(N)=O)C(=O)N[C@H](C(=O)N[C@@H](CCC(N)=O)C(=O)N[C@@H](CC(=O)O)C(=O)N1CCC[C@H]1C(=O)N[C@@H](CC(N)=O)C(=O)N[C@@H](CC(=O)O)C(=O)N[C@@H](CCC(N)=O)C(=O)N[C@@H](Cc1ccc(O)cc1)C(=O)N[C@@H](CCC(=O)O)C(=O)N1CCC[C@H]1C(=O)N[C@@H](Cc1ccccc1)C(=O)O)C(C)C)C(C)C [copper-64 labelled],,dynamic PET,"mouse, CT26 tumour, checkpoint inhibitor-treated, tumour","intravenous, 100 µCi/mouse, 1620 s",,SUVmean,4.57 SUV
